Published values collected from several papers.
Each line is one published result; not all experiments were run side by side.

`CC(C)Oc1ccc(-c2nn([C@@H](C)c3oc4ccc(F)cc4c(=O)c3-c3cccc(F)c3)c3ncnc(N)c23)cc1F` has an inhibition of -19.1% (NLRP3 inflammasome (mouse); mouse BMDM; 10 µM).
`CCN=C1C=CC(=C(c2ccc(N(CC)CC)cc2)c2ccc(N(CC)CC)cc2)c2ccccc21.Cl`: “AUC agonist score” 0 (androgen receptor pathway; agonist; concentration not given; direction not given).
With `C[C@H](NCc1ccc(OCc2ccccc2F)cc1)C(N)=O` the lowest IC30 was 7.01 µM (seizure ion channel panel; ion current, inhibitor; lowest across channels).
The selectivity ratio of `COc1cc(/C=C2\SC(=O)NC2=O)cc(F)c1OCCNc1nc2c(cnn2C2CCCC2)c(=O)[nH]1` is reported as 5 fold (PDE1B, PDE9; baseline: PDE9 IC50 over PDE1B IC50).
`CC(Nc1nc(N2CCCC2)nc2ccccc12)c1ccccc1` (centres unmarked): “cells with nuclear reporter” 93.7% (transportin-1/2; FUS nuclear import, high content imaging; HeLa Kyoto reporter; 0.1 µM, 2 h).
`C=CC(=O)N1CCC(Oc2cc3c(Nc4ccc(Cl)c(Cl)c4F)ncnc3cc2OC)CC1` has an inhibition of 90.5% (NLRP3 inflammasome (mouse); mouse BMDM; 10 µM).
Under “log2 fold change”, `Oc1ccccc1-c1n[nH]cc1-c1ccnc2ccccc12` is recorded as 0.31 (SSK2 (Candida albicans); kinase binding, MIB/MS competition; Candida albicans lysate; 10 µM; baseline: DMSO).
For `N#Cc1ccc2c(-c3ccncc3)c(-c3ccc(F)cc3)nn2c1`, “log2 fold change” read 0.145 (orf19.3456 kinase Candida albicans; MIB/MS competition binding; Candida albicans cell lysate; 10 µM; baseline: DMSO, lower = stronger binding).
The remaining binding of `C=CC(=O)N1CCC(C(=O)NCC(=O)N2CCN(c3nc(-c4cnc(N)nc4C(F)F)nc(N4CCOCC4)n3)CC2)CC1` is reported as 97% (FLT3 ITD; KINOMEscan; 1 µM; baseline: vehicle).
`O=C(NCC1CCOCC1)c1n[nH]cc1NC(=O)c1c(F)cccc1F` gave a remaining binding of 82% (human FLT3 ITD D835V; scanMAX; 1 µM; baseline: control).
`C=CC(=O)Nc1cc(Nc2nccc(-c3cn(C)c4ccccc34)n2)c(OC)cc1N(C)CCN(C)C` gave an inhibition of 74.5% (NLRP3 inflammasome (mouse); mouse BMDM; 10 µM).
The inhibition of `N=C(NCCCSC[C@H]1O[C@@H](n2cnc3c(NCCCc4ccccc4)ncnc32)[C@H](O)[C@@H]1O)Nc1ccccc1` is reported as < 10% (CamA DNA adenine methyltransferase (Clostridioides difficile); enzyme activity, inhibitor, MTase-Glo luminescence (SAH); 10 µM, 3 min, pH 7.5, 22 °C, with: SAM 40 µM).
`C[C@@H](c1ccc(-n2cnc3c(N)ncnc32)cc1)N1CCc2nn(C)c(Cc3ccccc3)c2C1=O` gave a remaining binding of 86% (FLT3 ITD; KINOMEscan; 100 nM; baseline: DMSO).
`N[C@@H](CO)C(=O)O` — result for “z-scored log2 fold change”: 0.282 (binding, equilibrium dialysis LC-MS; 5 µM, thermostabilized A2AR-BRIL construct; baseline: no-protein control, direction not given).
`CC(C)COc1ccc(CNC(=O)N(Cc2ccc(F)cc2)C2CCN(C)CC2)cc1` has a lowest IC30 of 0.561 µM (seizure ion channel panel; ion current, inhibitor; lowest across channels).
Under “log2 fold change”, `c1coc(-c2n[nH]cc2-c2ccnc3ccccc23)c1` is recorded as -0.1 (NPR1 (Candida albicans); kinase binding, MIB/MS competition; Candida albicans lysate; 10 µM; baseline: DMSO).
`CCC(C)(C)C(=O)O[C@H]1C[C@@H](C)C=C2C=C[C@H](C)[C@H](CC[C@@H]3C[C@@H](O)CC(=O)O3)[C@H]21` gave a lowest IC30 of 1.58 µM (seizure ion channel panel; ion current, inhibitor; lowest across channels).
For `N#CC[C@H](C1CCCC1)n1cc(-c2ncnc3[nH]ccc23)cn1`, the inhibition was 23.5% (NLRP3 inflammasome (mouse); mouse BMDM; 10 µM).
`CC#C[C@]1(O)CC[C@H]2[C@@H]3CCC4=CC(=O)CCC4=C3[C@@H](c3ccc(N(C)C)cc3)C[C@@]21C` — result for “AUC agonist score”: 0.00133 (androgen receptor pathway; agonist; concentration not given; direction not given).
`O=C1NC(=O)[C@@H](c2cn3c4c(cccc24)CCC3)[C@@H]1c1c[nH]c2ccccc12` has an inhibition of 91% (NLRP3 inflammasome (mouse); mouse BMDM; 10 µM).
For `CCN(C)C(=O)Oc1cccc([C@H](C)N(C)C)c1`, the lowest IC30 was > 30 µM (seizure ion channel panel; ion current, inhibitor; lowest across channels).
Under “z-scored log2 fold change”, `Cc1cn([C@@H]2O[C@H](CO)[C@@H](O)[C@H]2O)c(=O)[nH]c1=O` is recorded as 0.293 (binding, equilibrium dialysis LC-MS; 5 µM, thermostabilized A2AR-BRIL construct; baseline: no-protein control, direction not given).
Under “log2 fold change”, `N#Cc1ccn2c(-c3ccncc3)c(-c3ccc(F)cc3)nc2c1` is recorded as 0.157 (orf19.3456 kinase Candida albicans; MIB/MS competition binding; Candida albicans cell lysate; 1 µM; baseline: DMSO, lower = stronger binding).
For `O=C1NCCN1CCN1CCC(c2cn(-c3ccc(F)cc3)c3ccc(Cl)cc23)CC1`, the lowest IC30 was 2.12 µM (seizure ion channel panel; ion current, inhibitor; lowest across channels).
With `C1=C/COCc2cc(ccc2OCCN2CCCC2)Nc2nccc(n2)-c2cccc(c2)COC/1` the remaining binding was 4.3% (FLT3 ITD; kinase binding panel; concentration not given).
`Cc1n[nH]c2ccc(-c3cc(OC[C@@H](N)Cc4ccccc4)cnc3-c3ccoc3)cc12` — result for “log2 fold change”: -0.328 (orf19.3456 kinase Candida albicans; MIB/MS competition binding; Candida albicans cell lysate; 100 nM; baseline: DMSO, lower = stronger binding).
The enzyme activity of `CN1C[C@H](COc2nccc3c(NCc4ccco4)cc(Cl)nc23)OC1=O` is reported as 1.87 fold (human alpha-galactosidase A; activator; Fabry disease iPSC-cardiomyocytes; 10 µM; baseline: untreated).
With `CN1CCN(CCOc2cc(OC3CCOCC3)c3c(Nc4c(Cl)ccc5c4OCO5)ncnc3c2)CC1` the inhibition was 27.9% (NLRP3 inflammasome (mouse); mouse BMDM; 10 µM).
For `c1ccc(-c2n[nH]cc2-c2ccnc3ccccc23)nc1`, “log2 fold change” read 1.32 (orf19.3456 kinase Candida albicans; MIB/MS competition binding; Candida albicans cell lysate; 1 µM; baseline: DMSO, lower = stronger binding).
For `COc1cnc(Nc2cccc(S(N)(=O)=O)c2)nc1N1CCN(c2ccccc2)C(=O)C1`, “percent of control” read 61% (human FLT3 ITD/D835V; binding, KINOMEscan; 1000 nM; lower = stronger binding).
`C[C@@H]1CCN(C(=O)CC#N)C[C@@H]1N(C)c1ncnc2[nH]ccc12` has an inhibition of -19% (NLRP3 inflammasome (mouse); mouse BMDM; 10 µM).
For `N=C(NCCCSC[C@H]1O[C@@H](n2cnc3c(NCCCc4ccccc4)ncnc32)[C@H](O)[C@@H]1O)NC1CC1`, the inhibition was < 10% (CamA DNA adenine methyltransferase (Clostridioides difficile); enzyme activity, inhibitor, MTase-Glo luminescence (SAH); 10 µM, 3 min, pH 7.5, 22 °C, with: SAM 40 µM).
For `CC1(C)NC(=O)N(c2ccc([N+](=O)[O-])c(C(F)(F)F)c2)C1=O`, “AUC antagonist score” read 0.846 (androgen receptor pathway; antagonist; concentration not given; direction not given).
`Clc1nc(NCc2ccco2)c2[nH]cnc2n1` gave an enzyme activity of 1.43 fold (human alpha-galactosidase A; activator; Fabry disease iPSC-cardiomyocytes; 10 µM; baseline: untreated).
`C=CC(=O)N1CCC(COCC(=O)N2CCN(c3nc(-c4cnc(N)nc4C(F)F)nc(N4CCOC[C@@H]4C)n3)CC2)CC1` has a remaining binding of 44% (FLT3 ITD F691L; KINOMEscan; 1 µM).
For `C#C[C@]1(O)CC[C@H]2[C@@H]3CCc4cc(O)ccc4[C@H]3CC[C@@]21C`, “AUC agonist score” read 0 (androgen receptor pathway; agonist; concentration not given; direction not given).
The inhibition of `N=C(NCCCO)NCCCSC[C@H]1O[C@@H](n2cnc3c(NCCCc4ccccc4)ncnc32)[C@H](O)[C@@H]1O` is reported as < 10% (CamA DNA adenine methyltransferase (Clostridioides difficile); enzyme activity, inhibitor, MTase-Glo luminescence (SAH); 10 µM, 3 min, pH 7.5, 22 °C, with: SAM 40 µM).
With `Cc1cnc(NC2CCOCC2)nc1-n1cnc(C(=O)NC(CN)c2cc(F)cc(Cl)c2)c1` (centres unmarked) the remaining activity was 92% (casein kinase 1 (Saccharomyces cerevisiae); enzyme activity, inhibitor, radiometric kinase; 1 µM).
For `N#Cc1ccc(COc2cccc(C3CCN(Cc4nc5ccc(C(=O)O)cc5n4C[C@@H]4CCO4)CC3)n2)c(F)c1`, the IC50 was 3.5 µM (chloride channel).
For `CN1CCC[C@H]1c1cccnc1`, the EC50 was 308 µM (anti-compound antibody Fv; VH/VL dimerisation, split luciferase reporter; HEK293T).
`Nc1ncc2c(n1)-c1c([nH]c3ccc(C#CC4CC4)cc13)CCCC2` has a remaining binding of 100% (FLT3 ITD; scanMAX; 1 µM; baseline: control).
`Cn1cc(-c2ccc(-c3cncc(Cl)c3N3CCC4(CCNC4=O)CC3)cc2)cn1`: “log2 fold change” 1.16 (COLO 205; gene expression, microarray, item: PLEKHG2 mRNA; concentration not given, 6 h; baseline: untreated cells).
For `CCCS(=O)(=O)Nc1ccc(F)c(C(=O)c2c[nH]c3ncc(-c4ccc(Cl)cc4)cc23)c1F`, the inhibition was -77.4% (NLRP3 inflammasome (mouse); mouse BMDM; 10 µM).
`CC[C@H](C)C(=O)O[C@H]1C[C@H](O)C=C2C=C[C@H](C)[C@H](CC[C@@H](O)C[C@@H](O)CC(=O)O)[C@H]21` has a lowest IC30 of > 30 µM (seizure ion channel panel; ion current, inhibitor; lowest across channels).

Some of these lines once more:
Under “log2 fold change”, `Oc1ccccc1-c1n[nH]cc1-c1ccnc2ccccc12` is recorded as 0.31 (SSK2 (Candida albicans); kinase binding, MIB/MS competition; Candida albicans lysate; 10 µM; baseline: DMSO).
For `N#Cc1ccc2c(-c3ccncc3)c(-c3ccc(F)cc3)nn2c1`, “log2 fold change” read 0.145 (orf19.3456 kinase Candida albicans; MIB/MS competition binding; Candida albicans cell lysate; 10 µM; baseline: DMSO, lower = stronger binding).
The remaining binding of `C=CC(=O)N1CCC(C(=O)NCC(=O)N2CCN(c3nc(-c4cnc(N)nc4C(F)F)nc(N4CCOCC4)n3)CC2)CC1` is reported as 97% (FLT3 ITD; KINOMEscan; 1 µM; baseline: vehicle).
